Results from different studies.
Protocols differ between the studies behind these lines.

| SMILES | organism | assay | system | conditions | MIC |
| --- | --- | --- | --- | --- | --- |
| CC(C)C[C@H](NC(=O)[C@H](CCCNC(=N)N)NC(=O)[C@H](Cc1c[nH]c2ccccc12)NC(=O)[C@H](CCCNC(=N)N)NC(=O)[C@H](Cc1c[nH]c2ccccc12)NC(=O)[C@H](Cc1c[nH]c2ccccc12)NC(=O)[C@H](Cc1c[nH]c2ccccc12)NC(=O)[C@H](CCCNC(=N)N)NC(=O)[C@H](Cc1c[nH]c2ccccc12)NC(=O)[C@@H](N)CCCNC(=N)N)C(N)=O | Candida albicans | broth microdilution | CGMCC 2.209, RPMI 1640-MOPS | 48 h, 30 °C | 8 µM |
| N=C(N)c1ccc(OCc2ccc(-c3ccccc3)cc2COc2ccc(C(=N)N)cc2)cc1 | Escherichia coli |  | BW25113 mcr-1 | compound alone | > 100 µg/mL |
| CC[C@H](C)[C@H](NC(=O)[C@H](CC(N)=O)NC(=O)[C@H](Cc1ccccc1)NC(=O)[C@H](CCCNC(=N)N)NC(=O)[C@H](CCCNC(=N)N)NC(=O)[C@@H](N)CCCCN)C(=O)N[C@@H](CCCCN)C(=O)N[C@@H](CC(C)C)C(=O)N[C@@H](Cc1c[nH]c2ccccc12)C(=O)N[C@@H](CCCCN)C(=O)N[C@H](C(=O)N[C@@H](Cc1ccccc1)C(=O)O)[C@@H](C)O | Salmonella enterica subsp. enterica |  |  |  | 200 µg/mL |
| CC1(C)SC2C(NC(=O)C(NC(=O)C3=C(O)C(Cc4ccc(O)cc4)NC3=O)c3ccccc3)C(=O)N2C1C(=O)O (stereo not drawn) | Escherichia coli | broth microdilution | isolate IU 356 A, KPC-3, VIM-1, TEM | no clavulanic acid | > 200 µg/mL |
| CC(C)C[C@@H](NC(=O)[C@H](C)NC(=O)CNC(=O)[C@@H](NC=O)C(C)C)C(=O)N[C@@H](C)C(=O)N[C@@H](C(=O)N[C@H](C(=O)N[C@@H](C(=O)N[C@@H](Cc1c[nH]c2ccccc12)C(=O)N[C@H](CC(C)C)C(=O)N[C@@H](Cc1cc2ccccc2[nH]1)C(=O)N[C@H](CC(C)C)C(=O)N[C@@H](Cc1c[nH]c2ccccc12)C(=O)N[C@H](CC(C)C)C(=O)N[C@@H](Cc1c[nH]c2ccccc12)C(=O)NCCO)C(C)C)C(C)C)C(C)C | Streptococcus agalactiae | broth microdilution | JCM 5671 |  | 17 µM |
| C[C@H](NC(=O)CO/N=c1\cc2n(-c3ccc(Cl)cc3)c3ccccc3nc-2cc1Nc1ccc(Cl)cc1)C(=O)O | Neisseria gonorrhoeae | bacterial growth | 1130991, multidrug-resistant | 24 h | 3.75 µM |
| OC(Cn1cncn1)(Cn1cncn1)c1ccc(F)cc1F | Candida tropicalis | broth microdilution | CGMCC 2.192, RPMI 1640-MOPS | 48 h, 30 °C | 4 µM |
| CC[C@H](C)[C@H](NC(=O)[C@H](CC(N)=O)NC(=O)[C@H](CCCCN)NC(=O)[C@H](CC(=O)O)NC(=O)[C@H](Cc1ccc(O)cc1)NC(=O)[C@H](Cc1ccc(O)cc1)NC(=O)[C@H](Cc1ccc(O)cc1)NC(=O)[C@H](CCCNC(=N)N)NC(=O)[C@H](CC(C)C)NC(=O)CNC(=O)[C@H](CCCNC(=N)N)NC(=O)[C@@H](N)CO)C(=O)N[C@H](C(=O)N[C@@H](Cc1c[nH]cn1)C(=O)N[C@@H](CCCCN)C(=O)N[C@H](C(=O)N[C@@H](C)C(=O)NCC(=O)N[C@@H](CCCCN)C(=O)N[C@@H](CCCNC(=N)N)C(=O)N[C@@H](Cc1ccc(O)cc1)C(=O)N[C@H](C(=O)N[C@@H](Cc1ccc(O)cc1)C(=O)N[C@@H](CCCNC(=N)N)C(=O)N[C@@H](Cc1ccccc1)C(=O)N[C@H](C(=O)O)C(C)C)C(C)C)[C@@H](C)O)[C@@H](C)CC | Micrococcus luteus |  | NCTC 2665 |  | 12.5 µg/mL |
| CC1(C)SC2C(NC(=O)C(NC(=O)C3=C(O)C(Cc4ccsc4)NC3=O)c3ccccc3)C(=O)N2C1C(=O)O (stereo not drawn) | Escherichia coli |  | ATCC 35218, low-level TEM-1 | without clavulanic acid | > 200 µg/mL |

A few entries again:
| SMILES | organism | assay | system | conditions | MIC |
| --- | --- | --- | --- | --- | --- |
| CC[C@H](C)[C@H](NC(=O)[C@H](CC(N)=O)NC(=O)[C@H](Cc1ccccc1)NC(=O)[C@H](CCCNC(=N)N)NC(=O)[C@H](CCCNC(=N)N)NC(=O)[C@@H](N)CCCCN)C(=O)N[C@@H](CCCCN)C(=O)N[C@@H](CC(C)C)C(=O)N[C@@H](Cc1c[nH]c2ccccc12)C(=O)N[C@@H](CCCCN)C(=O)N[C@H](C(=O)N[C@@H](Cc1ccccc1)C(=O)O)[C@@H](C)O | Salmonella enterica subsp. enterica |  |  |  | 200 µg/mL |
